Published values of several laboratories.
Each numbered part is a random draw from the data of one study; scales do not carry over between parts. Positions count from the first letter of the parent shown.
Chain of UniProt P15735 (whole entry, looked up): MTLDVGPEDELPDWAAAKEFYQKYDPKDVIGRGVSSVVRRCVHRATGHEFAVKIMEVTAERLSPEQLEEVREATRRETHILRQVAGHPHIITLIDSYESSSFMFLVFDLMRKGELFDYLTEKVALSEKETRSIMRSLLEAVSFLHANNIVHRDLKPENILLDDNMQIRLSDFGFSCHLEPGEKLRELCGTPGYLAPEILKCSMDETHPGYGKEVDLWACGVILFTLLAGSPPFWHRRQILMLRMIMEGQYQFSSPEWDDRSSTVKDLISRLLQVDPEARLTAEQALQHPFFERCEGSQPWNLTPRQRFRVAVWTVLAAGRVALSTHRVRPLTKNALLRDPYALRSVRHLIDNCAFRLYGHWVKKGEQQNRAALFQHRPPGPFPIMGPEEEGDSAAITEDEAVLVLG
Chain of UniProt Q99986 (whole entry, looked up): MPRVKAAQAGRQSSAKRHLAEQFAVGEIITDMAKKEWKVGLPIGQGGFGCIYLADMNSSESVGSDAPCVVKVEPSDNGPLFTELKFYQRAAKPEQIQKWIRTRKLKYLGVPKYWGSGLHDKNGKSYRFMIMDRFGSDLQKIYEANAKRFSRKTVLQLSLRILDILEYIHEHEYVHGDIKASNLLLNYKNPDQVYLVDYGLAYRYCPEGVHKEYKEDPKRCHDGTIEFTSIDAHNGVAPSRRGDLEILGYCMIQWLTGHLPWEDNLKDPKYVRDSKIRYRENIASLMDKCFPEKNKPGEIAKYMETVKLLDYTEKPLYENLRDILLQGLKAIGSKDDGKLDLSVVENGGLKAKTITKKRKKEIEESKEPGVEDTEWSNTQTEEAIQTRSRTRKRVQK
Chain of UniProt Q9Y4K4 (whole entry, looked up): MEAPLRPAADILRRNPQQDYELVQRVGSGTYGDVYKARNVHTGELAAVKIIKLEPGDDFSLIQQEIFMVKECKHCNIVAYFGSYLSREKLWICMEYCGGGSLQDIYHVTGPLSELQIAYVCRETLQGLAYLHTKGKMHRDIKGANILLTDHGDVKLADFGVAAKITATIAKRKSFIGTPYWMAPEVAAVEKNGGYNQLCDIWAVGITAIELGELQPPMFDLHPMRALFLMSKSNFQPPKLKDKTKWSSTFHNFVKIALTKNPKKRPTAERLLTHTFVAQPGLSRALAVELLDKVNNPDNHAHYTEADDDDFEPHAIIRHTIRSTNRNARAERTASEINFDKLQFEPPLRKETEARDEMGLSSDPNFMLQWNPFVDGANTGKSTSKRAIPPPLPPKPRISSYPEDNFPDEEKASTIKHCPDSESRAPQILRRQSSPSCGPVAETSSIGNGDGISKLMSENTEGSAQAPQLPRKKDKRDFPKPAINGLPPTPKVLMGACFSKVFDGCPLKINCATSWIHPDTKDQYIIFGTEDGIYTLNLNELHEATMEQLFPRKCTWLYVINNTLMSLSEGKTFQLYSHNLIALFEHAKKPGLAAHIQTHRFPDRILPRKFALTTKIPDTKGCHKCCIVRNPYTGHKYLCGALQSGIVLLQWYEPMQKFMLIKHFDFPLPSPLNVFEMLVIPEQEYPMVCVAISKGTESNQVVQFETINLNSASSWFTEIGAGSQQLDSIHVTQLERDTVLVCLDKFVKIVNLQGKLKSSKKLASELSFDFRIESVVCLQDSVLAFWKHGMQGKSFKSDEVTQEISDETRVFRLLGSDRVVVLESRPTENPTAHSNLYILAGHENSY

Block 1 — effect on: enzyme activity; mode: inhibitor; concentration: 0.5 µM; baseline: control; endpoint: remaining activity
SMILES: COc1ccc2c(c[n+](C)c3c4cc5c(cc4ccc23)OCO5)c1OC
MAP4K5 (Homo sapiens, UniProt Q9Y4K4): 89.3%
VRK1 (Homo sapiens, UniProt Q99986): 106%
PHKG2 (Homo sapiens, UniProt P15735): 94.8%

Block 2 — target: CCNE2, cyclin fold, Cln2 fusion (human); method: yeast growth competition, sequencing; sample: yeast; notes: strong parent motif; baseline: not given; reading: higher = stronger binding; endpoint: normalised enrichment score
Starting sequence: viral docking peptide; KGVKRKLFAEDSS; partner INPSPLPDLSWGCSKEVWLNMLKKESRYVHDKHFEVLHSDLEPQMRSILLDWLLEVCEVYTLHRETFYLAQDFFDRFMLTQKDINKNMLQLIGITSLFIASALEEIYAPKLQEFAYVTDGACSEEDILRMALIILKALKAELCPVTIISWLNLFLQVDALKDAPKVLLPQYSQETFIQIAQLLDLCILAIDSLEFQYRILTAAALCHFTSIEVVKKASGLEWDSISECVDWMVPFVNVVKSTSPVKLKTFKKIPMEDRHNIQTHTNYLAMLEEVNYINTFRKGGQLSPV
KGIKRKLFAEDSS [V3I]: 3.79
KGVKRKYFAEDSS [L7Y]: 0.379
KGVKRKLFAEDFS [S12F]: 6.85
KGVKRKLFAEDRS [S12R]: 6.54
KGVKRSLFAEDSS [K6S]: 1.93
KGVKRKLFIEDSS [A9I]: 6.81
KWVKRKLFAEDSS [G2W]: 4.39
KGVKRKLRAEDSS [F8R]: 0.274

Block 3 — effect on: ligand displacement; concentration: 10 µM; endpoint: inhibition
Target: 5-hydroxytryptamine receptor 2C (HTR2C, Homo sapiens, UniProt P28335)
Chain of UniProt P28335 (whole entry, looked up): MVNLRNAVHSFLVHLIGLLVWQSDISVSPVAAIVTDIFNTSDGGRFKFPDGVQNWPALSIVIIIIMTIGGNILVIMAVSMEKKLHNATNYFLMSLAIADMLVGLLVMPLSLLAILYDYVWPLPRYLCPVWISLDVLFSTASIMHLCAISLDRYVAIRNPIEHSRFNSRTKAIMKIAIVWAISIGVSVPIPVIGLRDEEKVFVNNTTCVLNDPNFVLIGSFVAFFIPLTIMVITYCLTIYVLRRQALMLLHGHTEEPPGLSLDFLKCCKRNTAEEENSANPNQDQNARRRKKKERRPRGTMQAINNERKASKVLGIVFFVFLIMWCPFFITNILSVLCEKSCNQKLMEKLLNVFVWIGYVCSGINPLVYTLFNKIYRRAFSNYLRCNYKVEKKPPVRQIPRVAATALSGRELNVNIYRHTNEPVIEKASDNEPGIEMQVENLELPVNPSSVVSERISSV
O=C(NS(=O)(=O)c1ccc(NCC2CCOCC2)c([N+](=O)[O-])c1)c1ccc(N2CCN(Cc3ccc(C(F)(F)F)cc3-c3ccc(Cl)cc3)CC2)cc1Oc1cnc2[nH]ccc2c1: -0.17%
COc1ccc2c(c1)O[C@H](c1ccc(OC)c(OC)c1)C[C@@H]2NC(=O)C1(c2ccc3c(c2)OC(F)(F)O3)CC1: -2.28%
O=C(NC[C@@H]1[C@H]2CN(C(=O)OCc3cc(C(F)(F)F)cc(C(F)(F)F)c3)C[C@@H]12)c1ccc2[nH]nnc2c1: 41.5%
c1ccc(N2CCN(Cc3nc4ccccc4[nH]3)CC2)nc1: 0.0823%

Block 4 — target: vanadate, free oxyanion; method: microfluidic competitive inhibition; sample: in vitro, cell-free expressed; concentration: not given; reading: lower = stronger binding; endpoint: oxyanion analog dissociation constant
Notes: derived from inhibition constants, unchanged parent 676 nM
Starting sequence: PafA, mature enzyme, eGFP fusion (Elizabethkingia meningoseptica, UniProt Q9KJX5); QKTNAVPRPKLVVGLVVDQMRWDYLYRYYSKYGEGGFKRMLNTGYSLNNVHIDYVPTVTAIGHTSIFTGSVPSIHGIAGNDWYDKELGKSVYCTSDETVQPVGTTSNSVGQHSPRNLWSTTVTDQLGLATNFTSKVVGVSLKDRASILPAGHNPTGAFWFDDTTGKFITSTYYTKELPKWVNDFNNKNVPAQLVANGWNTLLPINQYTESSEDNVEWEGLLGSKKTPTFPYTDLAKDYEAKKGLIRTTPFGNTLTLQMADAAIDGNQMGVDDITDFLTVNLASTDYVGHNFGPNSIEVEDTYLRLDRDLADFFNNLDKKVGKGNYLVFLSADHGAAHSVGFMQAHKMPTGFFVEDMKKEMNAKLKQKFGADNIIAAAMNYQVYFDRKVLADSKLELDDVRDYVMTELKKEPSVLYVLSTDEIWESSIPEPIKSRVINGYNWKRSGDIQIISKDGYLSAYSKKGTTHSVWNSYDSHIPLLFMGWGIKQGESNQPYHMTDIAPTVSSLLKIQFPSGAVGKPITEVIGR
N266G: 1030 nM
A60V: 6420 nM
G69A: 1290 nM
W469V: 510 nM
E424G: 650 nM
P149G: 517 nM
P190V: 789 nM
D162V: 692 nM

For quick reference, copied from above (block 4):
P149G: 517 nM
W469V: 510 nM
P190V: 789 nM
